Measured values collected from several papers.
Parts stem from different laboratories: compare values within a part only.

Sample 1
Target: RING finger protein unkempt homolog, zinc fingers 1-6, GST-SBP tag (UNK, Homo sapiens, UniProt Q9C0B0, residues 30-357)
Technique: RNA Bind-n-Seq
Form: RNA
Matrix: in vitro
Concentration: not given
Notes: RNA with constant flanks, human-mouse chimeric sites, ends assumed
Baseline: input RNA pool
Direction: higher = stronger binding
All sequences stand within: GGGAGUUCUACAGUCCGACGAUC … CAACAGAGGAUUGAGCAUCA
Residues (chain): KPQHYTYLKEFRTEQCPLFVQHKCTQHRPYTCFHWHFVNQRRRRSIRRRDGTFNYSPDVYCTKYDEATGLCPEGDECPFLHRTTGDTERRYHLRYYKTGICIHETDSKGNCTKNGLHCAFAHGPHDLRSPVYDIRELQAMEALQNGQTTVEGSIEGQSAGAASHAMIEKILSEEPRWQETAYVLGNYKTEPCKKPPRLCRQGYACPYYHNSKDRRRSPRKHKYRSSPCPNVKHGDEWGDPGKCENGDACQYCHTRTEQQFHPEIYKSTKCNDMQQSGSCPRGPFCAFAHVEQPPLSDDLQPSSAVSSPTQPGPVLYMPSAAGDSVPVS
Strand	bound/input enrichment [ratio]
GUGCCCUUCUCGCUGCUCCUGCGGGGCAGCUGGGAACCAUUCCGGGACUGGUACCCUGCACACAGCCGCCUCUUCGAUCAAGCUUUCGGGGUGCCCCGGCUGCCGGAUGAGUGGUCGCAG	0.0595
UACUACUAUGAUGGUGAUAUUGGCAAUUAUUAUUAUGGCCAGGGUCAUCCCAUGAAGCCUCAUAGAAUCCGGAUGACUCAUAACUUGCUGCUAAAUUAUGGCUUAUACCGAAAAAUGGAA	0.179
GGAUCUUUGGGACUGUUUUACUUAAUUGGUCAUUGAUAGCUUAACAAACAUGGAGAUGAGAUUAGAAAUCUUGACAUCAACAGGUAUUAAGCAGAAAAAACCAUGGCCACGUGUCUCCUG	0.204
AUUCCGAUUAUGGACACCGGUGAAAACCCAGAGGUUCCCUUCCCUCGGGACAUGAUUGACUUAGAGGCCAAUUUUGAGAAGAUUGAAAAUGAACUGAAGGAAAUCAACACAAACCAGGAA	0.149
GGACAUCUGUCAAAUUGUAUUUCCCGUGUGAAACAAGUGAACACUCUGAUACACUUCAUCUGCUUGUACAUCUGUAUGAUAGAGAAACAGAAAUCUAUUAAUCCAAGCAAUGUGUCACUU	0.209
GUGUCCUGCUUUCAACUUAAAUCACUGAGGCAUCUCUACUGUUCUGUGAGCAUCAGGACUGUAGCGCUGUGUCACCACAGAUGAGAACAGAAGCAGCCUUUCUGUGGAGGGUGGGAAUGA	0.182
AUCAAAUACUUUGGGGACAUCAUUAGUGUGGGACAGAGAUUGUUGCAAGGAGCUCGGAUUUUAGGAAUUCCAGUUAUCAUAACGGAACAAUACCCCAAAGGACUUGGCAGCACCGUUCAA	0.312
GUAGCUGGGACUACAGAAAUGCUGGUAGUGCUCCGGCCUUGCUGAUGACUUCUGAUGUCCCAGCAAAUAAUGCCACAGUUGACUGCUGAGAAGAUACUUCUGAGGACCCACGUCUAAGGU	0.0966
UGUGCAUAUGAUGCUUGGAGAUGGUUUUGCAAAAGCAGAAAUCGCUGCAAGGUCAUUACAAUAGAUAAAAGUGGUAUUUUAAACCUUUGAAAUAAAUGGAUGUAACUGUACCUUGGUACA	0.42
CCAAUUGUGGAGCAGUACUUGAAGACAAAGAAAAAUUCUAAUAAUUUAAUCAUCAAGUACAUUAGCUGCCGGCUGGUGACACUCAUCAUUAUACUGUUGGCAUGUAUCUACCUGGGCUAU	0.32
UGUGAACUGUCUCUUGAUUGGGGUCUAAAACAUGAUUUUUCCUGGCACAUAUUCCAAAGCAAAGACUUUGUUGCCUGCUGCUUAUUGUCUAAUUUACAGGGAUAUUUAAUUUUGUCAGGU	0.26

Sample 2
Target: Prothrombin, mature alpha-thrombin (F2, Homo sapiens, UniProt P00734)
Technique: aptamer microarray, sandwich
Form: DNA with 2'F-ANA
Matrix: in vitro
Concentration: 200 nM
Notes: whole 15-mer aptamer, many near background
Added: Cy3 exosite-II aptamer, 400 nM
Direction: higher = stronger binding
Strand: GGTTGGTGTGGTTGG
Modification	mean fluorescence intensity [a.u.]
2'F-ANA at 2 3 7 8 10 12 13	413
2'F-ANA at 1 3 5 7 10 11 13 14 15	46.1
2'F-ANA at 1 2 3 5 6 12 15	109
2'F-ANA at 2 4 5 6 7 11 13 14 15	67.7
2'F-ANA at 2 3 4 7 8	881
2'F-ANA at 1 6 7 8 10 12 14	53.8
2'F-ANA at 1 2 3 4 6 9 10 11 12 15	109
2'F-ANA at 2 5 9 10 13 14	46.6
2'F-ANA at 1 3 7 8 10 12 14	61.5
2'F-ANA at 2 7 9 14 15	176
2'F-ANA at 1 2 5 8 10 15	46
2'F-ANA at 1 2 3 9 13 14	78.3
2'F-ANA at 2 4 5 12 13	118
2'F-ANA at 1 3 8 10 11 12	137
2'F-ANA at 2 3 4 5 7 9 10 12 13 15	56
2'F-ANA at 4 5 7 8 11 12 15	124
2'F-ANA at 2 3 4 5 6 8 9 10 11 14	133
2'F-ANA at 2 5 6 8 10 13 14 15	47.6
2'F-ANA at 1 4 6 8 9 10 12 15	59.9
2'F-ANA at 2 3 4 5 7 9 10 12 13 14	57.1

Sample 3
Target: human cyclin A2
Read-out: peptide binding
Technique: competitive growth sequencing
Form: peptide
Organism: Saccharomyces cerevisiae
Strain: cyclin A2-Cln2 fusion strain
Concentration: concentration not given
Notes: mutational scanning library
Baseline: unfused Cln2 strain
Direction: direction not given
Sequence	binding score
VVSADDAIQFTRV	0.386
YSPLLPPFGLSYT	2.03
PPVKARADLETDH	0.313
TSACRSLFGPVDH	1.23
PKPLAKARFDIEG	0.00632
LPAKRKLDLEGIG	2.63
TKVRRNLFNQELL	1.84
SNARRSLNFGGST	3.23

Sample 4
Target: Ras GTPase-activating protein-binding protein 1, full length (G3BP1, Homo sapiens, UniProt Q13283)
Chain of UniProt Q13283 (whole entry, looked up): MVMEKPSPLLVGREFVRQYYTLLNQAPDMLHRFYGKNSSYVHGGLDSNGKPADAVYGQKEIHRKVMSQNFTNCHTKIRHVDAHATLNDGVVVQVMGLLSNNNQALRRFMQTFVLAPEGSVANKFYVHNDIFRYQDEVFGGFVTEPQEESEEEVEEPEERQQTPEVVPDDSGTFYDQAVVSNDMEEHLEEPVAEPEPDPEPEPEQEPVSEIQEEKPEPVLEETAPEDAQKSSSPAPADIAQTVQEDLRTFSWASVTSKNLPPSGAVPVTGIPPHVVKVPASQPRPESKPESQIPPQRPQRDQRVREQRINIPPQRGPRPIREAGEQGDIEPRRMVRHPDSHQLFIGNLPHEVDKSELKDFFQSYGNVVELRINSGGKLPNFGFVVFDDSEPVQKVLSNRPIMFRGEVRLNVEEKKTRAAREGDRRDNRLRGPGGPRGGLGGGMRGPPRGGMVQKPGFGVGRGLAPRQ
Technique: RNA Bind-n-Seq
Form: RNA
Matrix: in vitro
Concentration: 200 nM
Notes: whole 134-nt RNA, ends assumed
Added: 150 mM KCl
Baseline: input library
Direction: higher = stronger binding
All sequences stand within: GGGAGUUCUACAGUCCGACGAUC … UGGAAUUCUCGGGUGUCAAGG
Strand	log2 enrichment
UUUUAGAAAGAGAAGGGGAAGAAAAUGAAGCCUUACAUAAGAUGAUUGCAAACGAGCAAAAGACUUCUCUCCCAAAUUUGUUCCAGGAUA	-1.28
UGUUUAAUAAACGUGAAGAUGUCUCGCAGUCCUGAUGCGAAGGAAGACCCUGUGGAGUGCCCUCUUUGCAUGGAGCCCUUGGAGAUAGAU	-0.993
GAGAGCGAGGUGGCUUCAAUAAGCCUGGUGGUAAGUUUUUGAGUAUUACCAUAGAUAGUGUUUAAAAAAAAAUGCAGUCAGUUUUUAGAA	-0.87
UUAGUGAAUGUAUAGAAGGAGUAAAGGUAGAGCACAAUCCUGACCUGUCAGUUACUGUCAGCACCAAAAAAUCCCACCAGACAUGGACCU	-0.14
CAAGUCCUGUGCUACACAUCGUAUGUACCGAAUCGGGGUUUGGUUUGGGGUUUGGAAAGUAUUAUGUUACGCCGUUCGGAUCUGCACUUC	-0.311
UCCUGUGCUACACAUCGUAUGUACCGAAUCGGGAAAGGGAAAAAAAGGGAAAAAAAGGGAAAGUAUUAUGUUACGCCGUUCGGAUCUGCA	-0.421
AGUCCUGUGCUACACAUCGUAUGUACCGAAUCGGGUUUUGGGUUUUGGGUUUUGGGGAAAGUAUUAUGUUACGCCGUUCGGAUCUGCACU	0.0838
AAGUCCUGUGCUACACAUCGUAUGUACCGAAUCGGGGAAAAGGAAAAGGGAAAAGGAAAGUAUUAUGUUACGCCGUUCGGAUCUGCACUU	-0.844
GCAGGAAGUAAAAACAAAUGGAAAUGCUUAGGAUAGUGGCAGGGGUGGGGGUUGCUAAGGAAAGGGUGGGAUGGGAGUGGGUAAAGAGUU	0.852
UUCUGACUCAGAAUGUGCCAAAAAGGCUUUGGAACAACUUAAUGGAUUUGAACUAGCAGGAAGACCAAUGAAAGUUGGUCAUGUUACUGA	-1.45
CCUCAAGUCCUGUGCUACACAUCGUAUGUACCGAAUCGGGUGGGUGGGGUGGAAAGUAUUAUGUUACGCCGUUCGGAUCUGCACUUCCAG	1.24
AGUCCUGUGCUACACAUCGUAUGUACCGAAUCGGGGAAAGGGGUGGGGAAAAAGGGGAAAGUAUUAUGUUACGCCGUUCGGAUCUGCACU	0.347
GUCCUGUGCUACACAUCGUAUGUACCGAAUCAAAUUUUUUUAAAUUUUUAAAUUUAAAAAAGUAUUAUGUUACGCCGUUCGGAUCUGCAC	-1.58
CACAGACAACACGCACCCACACAGACACAGAGGGAAGGGGUUGGGAAGGGGACAGGGUGCACAGCAGGGCGGGGUAGGACCCCAGCCCCU	1.76

Sample 5
Target: Histone acetyltransferase KAT6A, winged helix 1, GST fusion (KAT6A, Homo sapiens, UniProt Q92794, residues 1-85)
Technique: protein binding microarray
Form: double-stranded DNA, one strand shown
Matrix: in vitro
Concentration: not given
Notes: 8-mer, flanks averaged, mean of 2 arrays, mostly near background
Baseline: not given
Direction: higher = stronger binding
Construct (chain): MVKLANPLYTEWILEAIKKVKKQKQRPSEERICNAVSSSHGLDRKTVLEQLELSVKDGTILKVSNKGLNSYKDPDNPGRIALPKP
Strand	E-score
GTCTGCAC	-0.022
CAGAGAGG	-0.224
ACCAAAGA	-0.219
TACCCGAA	0.106
GACTGGGA	-0.123
ACTCACGC	0.137
ACGGCTGG	0.151
ACCTTGGA	-0.214
CACCTTGG	-0.229
ATATGTTC	0.0128
CGCTACTC	0.249
AATATGAA	-0.154
ATGGGCAC	-0.0925
CATGGAAA	-0.224
GGAGTATA	0.117
CGGGTACG	0.343
AGGGGTTA	-0.133
GATCTCAC	0.0408
GAACGCAC	0.0815
AGCCGGTG	0.254
ACTTAGCA	-0.231
TTATGAAA	-0.137
ATGGTAAG	-0.0743
GCCACCCA	-0.121
AAGAGAAT	-0.173

Sample 6
Target: PABPC1L2, full length, GST fusion (mouse, UniProt A0ABA7IW68)
Technique: RNAcompete
Form: RNA
Matrix: in vitro
Concentration: 20 nM
Notes: 7-mer, probes averaged, single round
Baseline: mean of 7-mers
Direction: higher = stronger binding
Construct (chain): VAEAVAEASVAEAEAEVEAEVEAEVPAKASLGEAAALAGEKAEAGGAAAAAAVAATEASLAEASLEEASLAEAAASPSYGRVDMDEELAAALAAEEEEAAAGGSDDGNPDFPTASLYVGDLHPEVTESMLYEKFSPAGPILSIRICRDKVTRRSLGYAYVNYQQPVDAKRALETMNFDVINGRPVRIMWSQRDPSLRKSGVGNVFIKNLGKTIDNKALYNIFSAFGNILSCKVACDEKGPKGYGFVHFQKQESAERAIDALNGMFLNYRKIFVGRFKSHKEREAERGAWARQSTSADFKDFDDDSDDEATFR
Strand	7-mer Z-score
CCUUAAG	-0.329
AGGUAAC	0.0134
UACAAUA	0.115
CAGGCUG	-0.0627
AUGCCAC	-0.11
GUGUCGA	-0.0409
AGAACAG	0.109
AUUCGUA	-0.353
GUACCAU	-0.209
UACAUAG	-0.146
CGCACAC	-0.229
CGAGCCG	-0.0953
CGCACAG	-0.159
GUAUCUA	-0.18
ACCAUUA	-0.141
UGGUAGU	-0.32
GAAGUCC	-0.18
UUUCAUA	-0.211
CCCAAGU	-0.295
AGGACAU	0.186
UCGGUAC	-0.186
GCCAGCG	-0.211
GCGGCAG	0.175
UCAGAAU	-0.175
UACCAUA	0.0261
